Experimental data collected from several papers.
Protocols differ between the studies behind these lines. ± marks the error that the study gave.
FAP: Prolyl endopeptidase FAP (FAP, Homo sapiens, UniProt Q12884)
UniProt Q12884, sequence (whole entry, looked up): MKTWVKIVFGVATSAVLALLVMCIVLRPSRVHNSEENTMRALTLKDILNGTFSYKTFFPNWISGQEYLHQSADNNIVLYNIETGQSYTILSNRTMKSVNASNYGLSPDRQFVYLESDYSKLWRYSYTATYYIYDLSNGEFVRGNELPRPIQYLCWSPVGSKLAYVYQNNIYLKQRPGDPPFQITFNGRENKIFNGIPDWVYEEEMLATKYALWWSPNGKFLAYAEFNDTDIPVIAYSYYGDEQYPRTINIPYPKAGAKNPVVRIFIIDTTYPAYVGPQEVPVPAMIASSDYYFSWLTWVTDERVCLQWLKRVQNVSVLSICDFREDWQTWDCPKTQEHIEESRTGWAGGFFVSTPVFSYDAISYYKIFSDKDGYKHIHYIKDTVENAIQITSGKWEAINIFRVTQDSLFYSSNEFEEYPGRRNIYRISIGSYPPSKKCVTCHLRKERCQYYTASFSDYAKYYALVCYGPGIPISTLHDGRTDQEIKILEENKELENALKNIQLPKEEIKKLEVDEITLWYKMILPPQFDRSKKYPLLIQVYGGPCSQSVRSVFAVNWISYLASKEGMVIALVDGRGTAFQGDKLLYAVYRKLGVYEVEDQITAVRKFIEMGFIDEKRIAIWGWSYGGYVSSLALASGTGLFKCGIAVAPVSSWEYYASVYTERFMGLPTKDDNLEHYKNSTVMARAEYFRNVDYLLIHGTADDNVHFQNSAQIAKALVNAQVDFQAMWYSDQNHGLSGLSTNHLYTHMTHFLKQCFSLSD
B1: protein (uncultured bacterium HF130_AEPn_1, UniProt D0E8I5); chain MSLSNSSKVSVLISLLEKSRDLDYIGEAINQLEHSLQCAYFAQRSGADNEMVLAALLHDLGHYCNDTSFEDMGGYGVWQHEKVGADYLRGLGFSERVACLIEGHVAAKRYLVSSKASYLKNLSDASRKTLEYQGGPMDEGERRLFEEREDFKDCLKIRAWDEKGKQTDLKVPGPEHYRKMMEEHLSENQN
B2: Lxyl-p1-1 V91S (Lentinula edodes, UniProt G8GLN9); chain YFSGLGLGSERSIFRRDLNSTGDESNSTQWPAPLANGGKSWASAFKKAKSTVAEMTVEELANITSGVIGLCSGVTGAVTRLGIPELCLQDGPIGPRGVHGSSQFPAGLTVAATWDRTLMYARARGMGQEFHDQGVHIALAPVTGGPLGRTPLNGRGWEGTFADPYACGEASYQSVKGLTDAGVATVSKHWIAYEQETSRNLYIEFDGVSQADIQLPISSNVDDLTMHELYMWSFAEAVRAGTNHIMCSYNRINNTHSCNNAKGLNQLLKTELNFQGGVVSDWGGQWDSVLSAENGLDVGMPGEGFLGELGDFWGTTLADLINNGTVSEDLVRDKVVRLLTGYYYLGQDINPPPPFVYNTIGAPTLNATSGYRNVRKPGTAELIKEIGSASVTLLKNTGSLPLKHPQRIAVLGNDATYNVLGPNACGLANSACDIDNLNGTLTTGGGSGSALSPYTITPLEALQKRAIEDNAEIAAVVANSNTTTGAEDAIAALLPDADVTFVFLNRYSEEGADAPDFSLGGDGDNLMDLAVTYSSNVVVVIHTTGVVDIEKWADNPNVTAILVAYLPGQEAGNSLVPVLYGDVAPSGKLPWTWGKSIDDYVPNGVVYTDAYSPQSNFTEGVFIDYRWFDKMGITPRYEFGFGLSYTTFTYSNLIVDHGRWAKDYSSVMETAEPFAEWDGTNSLYDVIFTVFATITNTGNLTGSEVAQLYISIPGDNQPVRQLRGFDKIKDLPVGDSAVVTFPIRRKDVSSWSVVDQLWYVPNGDFLISVGGSSRDLPLNTTWTP
UniProt Q6XEC0, sequence (whole entry, looked up): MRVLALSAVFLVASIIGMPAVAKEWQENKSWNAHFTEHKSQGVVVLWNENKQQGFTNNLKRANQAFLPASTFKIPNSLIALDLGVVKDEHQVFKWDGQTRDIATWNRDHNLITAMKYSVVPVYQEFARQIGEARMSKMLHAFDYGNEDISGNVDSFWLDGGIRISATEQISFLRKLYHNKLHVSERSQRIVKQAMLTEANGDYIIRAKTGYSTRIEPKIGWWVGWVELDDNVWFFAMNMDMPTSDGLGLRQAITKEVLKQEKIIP
UniProt P97321, sequence (whole entry, looked up): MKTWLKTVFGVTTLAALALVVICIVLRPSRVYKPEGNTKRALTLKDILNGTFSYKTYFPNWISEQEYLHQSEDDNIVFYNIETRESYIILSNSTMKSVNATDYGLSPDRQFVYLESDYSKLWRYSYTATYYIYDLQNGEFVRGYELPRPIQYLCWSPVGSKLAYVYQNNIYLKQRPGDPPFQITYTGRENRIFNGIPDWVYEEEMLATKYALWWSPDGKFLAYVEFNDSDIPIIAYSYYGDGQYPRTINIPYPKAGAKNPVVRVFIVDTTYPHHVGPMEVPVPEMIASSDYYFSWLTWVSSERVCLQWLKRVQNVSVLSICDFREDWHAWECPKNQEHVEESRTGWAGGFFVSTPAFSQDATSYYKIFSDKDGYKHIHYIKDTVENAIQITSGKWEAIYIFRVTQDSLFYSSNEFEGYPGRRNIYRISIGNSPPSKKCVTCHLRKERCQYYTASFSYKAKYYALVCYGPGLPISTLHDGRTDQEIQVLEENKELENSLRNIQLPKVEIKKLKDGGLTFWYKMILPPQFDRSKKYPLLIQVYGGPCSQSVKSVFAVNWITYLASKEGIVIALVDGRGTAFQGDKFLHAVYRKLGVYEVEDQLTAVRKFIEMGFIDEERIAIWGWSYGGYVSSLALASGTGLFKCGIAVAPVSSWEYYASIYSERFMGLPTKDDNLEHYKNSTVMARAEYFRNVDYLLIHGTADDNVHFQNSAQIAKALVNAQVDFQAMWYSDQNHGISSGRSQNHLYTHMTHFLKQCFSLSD
UniProt O15354, sequence (whole entry, looked up): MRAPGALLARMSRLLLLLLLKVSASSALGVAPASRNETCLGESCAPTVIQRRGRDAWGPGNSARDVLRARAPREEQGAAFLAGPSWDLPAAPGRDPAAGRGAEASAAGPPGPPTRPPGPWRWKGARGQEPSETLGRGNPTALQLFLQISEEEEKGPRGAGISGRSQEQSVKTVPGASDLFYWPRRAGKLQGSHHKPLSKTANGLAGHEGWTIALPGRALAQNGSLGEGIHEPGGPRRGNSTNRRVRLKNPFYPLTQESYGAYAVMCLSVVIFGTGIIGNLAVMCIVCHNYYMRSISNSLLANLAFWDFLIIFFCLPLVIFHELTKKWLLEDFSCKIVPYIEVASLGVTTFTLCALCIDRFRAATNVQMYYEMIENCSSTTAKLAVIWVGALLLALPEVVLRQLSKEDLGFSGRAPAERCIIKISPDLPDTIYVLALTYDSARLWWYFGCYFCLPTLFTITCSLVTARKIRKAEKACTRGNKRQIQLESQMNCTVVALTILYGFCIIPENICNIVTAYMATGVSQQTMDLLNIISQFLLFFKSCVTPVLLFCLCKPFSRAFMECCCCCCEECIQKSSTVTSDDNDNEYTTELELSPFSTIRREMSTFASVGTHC

`melittin` — result for “free energy of partitioning”: -25.1 kJ/mol (CD titration; POPC 100% POPG 0% vesicles; pH 7.0, 60 °C).
For COc1cccc2c1C(=O)c1c(O)c3c(c(O)c1C2=O)C[C@@](O)(C(=O)CO)C[C@@H]3O[C@H]1C[C@H](NC(=O)[C@@H]2CCCN2C(=O)CNC(=O)[C@H](CC(C)C)NC(=O)[C@H](C)NC(=O)CP(=O)(O)O)[C@H](O)[C@H](C)O1, the Tmax was 5 min (mouse, E0771 tumour-bearing, kidney; intravenous, 92 µmol/kg).
The tissue uptake of N=C(N)NCCC[C@@H]1NC(=O)[C@H](CCCCNC(=O)[C@H](CC(=O)O)NC(=O)[C@H](CC(=O)O)NC(=O)[C@H](CC(=O)O)NC(=O)CC[C@H](NC(=O)CCOCCOCCOCCOCCNC(=O)c2ccc(NN)nc2)C(=O)N[C@@H](CC(=O)O)C(=O)N[C@@H](CC(=O)O)C(=O)N[C@@H](CC(=O)O)C(=O)NCCCC[C@@H]2NC(=O)[C@@H](Cc3ccccc3)NC(=O)[C@H](CC(=O)O)NC(=O)CNC(=O)[C@H](CCCNC(=N)N)NC2=O)NC(=O)[C@@H](Cc2ccccc2)NC(=O)[C@H](CC(=O)O)NC(=O)CNC1=O [technetium-99m labelled] is reported as 0.19 ± 0.09 %ID/g (γ-counting; female athymic nude mice, U-87 MG xenograft, blood; intravenous, 2 h).
`pertussis toxin` — result for ERK phosphorylation: “inhibited” (GPR37 (Homo sapiens, UniProt O15354); antagonist; HEK293 cells overexpressing GPR37; concentration not given, pretreatment, with: osteocalcin).
For `B1 (protein)`, the kcat was 6.8 ± 0.3 s⁻¹ (NC[C@H](O)P(=O)(O)O; steady-state kinetics; pH 7, 25 °C, NaCl 150 mM, with: O2, Fe(II) 100 µM, ascorbate 100 µM).
Under “hydrolysis to emetine”, CC[C@H]1CN2CCc3cc(OC)c(OC)cc3[C@@H]2C[C@@H]1C[C@@H]1c2cc(OC)c(OC)cc2CCN1C(=O)[C@@H]1CCCN1C(=O)CNC(=O)[C@H](C)NC(=O)[C@@H]1CCCN1C(=O)CNC(=O)[C@H](CO)NC(=O)[C@H](C)NC(C)=O is recorded as 0% (FAP; substrate, HPLC-MS; 250 µM, 24 h, pH 7.8, 37 °C, 2.5% DMSO).
The tissue uptake of CC(=O)N(O)CCCCCNC(=O)CCC(=O)N(O)CCCCCNC(=O)CCC(=O)N(O)CCCCCNC(=S)Nc1ccc(NC(=S)NCCOCCOCCOCCOCCC(=O)N[C@@H](CCC(=O)NCCOCCOCCOCCOCCC(=O)NCCCC[C@@H]2NC(=O)[C@@H](Cc3ccccc3)NC(=O)[C@H](CC(=O)O)NC(=O)CNC(=O)[C@H](CCCNC(=N)N)NC2=O)C(=O)NCCOCCOCCOCCOCCC(=O)NCCCC[C@@H]2NC(=O)[C@@H](Cc3ccccc3)NC(=O)[C@H](CC(=O)O)NC(=O)CNC(=O)[C@H](CCCNC(=N)N)NC2=O)cc1 [zirconium-89 labelled] is reported as 9.5 ± 1.3 %ID/g (athymic nude mice female tumour-bearing, spleen; intravenous, dose not given, 4 h, with: unlabelled c(RGDfK) 300 µg).
`OXA-48 (Klebsiella pneumoniae, UniProt Q6XEC0)` has a kcat of 2.8 ± 0.1 s⁻¹ (CC(=O)OCC1=C(C(=O)O)N2C(=O)[C@@H](NC(=O)Cc3cccs3)[C@H]2SC1; steady-state kinetics; pH 7.2, 30 °C).
For CC[C@H]1CN2CCc3cc(OC)c(OC)cc3[C@@H]2C[C@@H]1C[C@@H]1c2cc(OC)c(OC)cc2CCN1C(=O)OCc1ccc(NC(=O)[C@@H]2CCCN2C(=O)CNC(=O)[C@H](C)NC(=O)[C@@H]2CCCN2C(=O)CNC(=O)[C@H](CO)NC(=O)[C@H](C)NC(C)=O)cc1, “hydrolysis to emetine” read 0% (FAP; substrate, HPLC-MS; 250 µM, 24 h, pH 7.8, 37 °C, 2.5% DMSO).
For CCSSC[C@H](NC(=O)[C@H](CC(=O)O)NC(=O)[C@H](Cc1ccccc1)NC(=O)[C@H](CCC(=O)O)NC(=O)[C@@H](NC(C)=O)[C@@H](C)CC)C(=O)NCC(=O)N[C@@H](Cc1cn(CCCNC(=O)CCCCC[N+]2=C(/C=C/C=C/C=C3/N(C)c4ccc(S(=O)(=O)[O-])cc4C3(C)C)C(C)(C)c3cc(S(=O)(=O)O)ccc32)nn1)C(=O)NCc1ccc(C(=O)NCCCOc2cnc(C#N)nc2)cc1, cytotoxicity read “no effect” (CD19-28ζ CAR T cells; 0, 2.5 and 5 µM, overnight, with: A20-Luc target cells).
The kcat of `B2 (Lxyl-p1-1 V91S)` is reported as 4.75 ± 0.35 s⁻¹ ([H][C@]12[C@H](OC(=O)c3ccccc3)[C@]3(O)C[C@H](OC(=O)[C@H](O)[C@@H](NC(=O)c4ccccc4)c4ccccc4)C(C)=C([C@@H](O)C(=O)[C@]1(C)[C@@H](O[C@@H]1OC[C@@H](O)[C@H](O)[C@H]1O)C[C@@]1([H])OC[C@@]21OC(C)=O)C3(C)C; steady-state kinetics).
C=Cc1c(C)c2cc3nc(c4c5[nH]c(cc6nc(cc1[nH]2)C(C)=C6CC)c(C)c5C(=O)C4)[C@@H](CCC(=O)N[C@H](C(=O)N[C@@H](CO)C(=O)NCC(=O)N1CCC[C@H]1C(=O)N[C@@H](CC(N)=O)C(=O)N[C@@H](CCC(N)=O)C(=O)N[C@@H](CCC(=O)O)C(=O)N[C@@H](CCC(N)=O)C(=O)N[C@@H](CCCCNC(=O)CCCN(C)c1ccc(N=Nc2ccc4nc5ccc(N(CC)CC)cc5[n+](-c5ccccc5)c4c2)cc1)C(N)=O)[C@@H](C)O)[C@@H]3C gave a Vmax of 36 ± 2 pmol/min (Fap (Mus musculus, UniProt P97321); substrate; 0.1 to 6 µM, pH 7.37, 37 °C).
N=C(N)NCCC[C@@H]1NC(=O)[C@H](CCCCNC(=O)CNC(=O)CNC(=O)CNC(=O)CC[C@H](NC(=O)CCOCCOCCOCCOCCNC(=O)c2ccc(NN)nc2)C(=O)NCC(=O)NCC(=O)NCC(=O)NCCCC[C@@H]2NC(=O)[C@@H](Cc3ccccc3)NC(=O)[C@H](CC(=O)O)NC(=O)CNC(=O)[C@H](CCCNC(=N)N)NC2=O)NC(=O)[C@@H](Cc2ccccc2)NC(=O)[C@H](CC(=O)O)NC(=O)CNC1=O [technetium-99m labelled] has a tissue uptake of 10.7 ± 1 %ID/g (γ-counting; female athymic nude mice, U-87 MG xenograft, kidneys; intravenous, 1 h).
COc1cccc2c1C(=O)c1c(O)c3c(c(O)c1C2=O)C[C@@](O)(C(=O)CO)C[C@@H]3O[C@H]1C[C@H](NC(=O)[C@H](CC(C)C)NC(=O)[C@H](C)NC(=O)[C@H](CC(C)C)NC(=O)CCNC(=O)CCC(=O)O)[C@H](O)[C@H](C)O1 gave a Tmax of 5 min (mouse, E0771 tumour-bearing, tumor; intravenous, 92 µmol/kg).

Excerpt of the above:
The tissue uptake of N=C(N)NCCC[C@@H]1NC(=O)[C@H](CCCCNC(=O)[C@H](CC(=O)O)NC(=O)[C@H](CC(=O)O)NC(=O)[C@H](CC(=O)O)NC(=O)CC[C@H](NC(=O)CCOCCOCCOCCOCCNC(=O)c2ccc(NN)nc2)C(=O)N[C@@H](CC(=O)O)C(=O)N[C@@H](CC(=O)O)C(=O)N[C@@H](CC(=O)O)C(=O)NCCCC[C@@H]2NC(=O)[C@@H](Cc3ccccc3)NC(=O)[C@H](CC(=O)O)NC(=O)CNC(=O)[C@H](CCCNC(=N)N)NC2=O)NC(=O)[C@@H](Cc2ccccc2)NC(=O)[C@H](CC(=O)O)NC(=O)CNC1=O [technetium-99m labelled] is reported as 0.19 ± 0.09 %ID/g (γ-counting; female athymic nude mice, U-87 MG xenograft, blood; intravenous, 2 h).
N=C(N)NCCC[C@@H]1NC(=O)[C@H](CCCCNC(=O)CNC(=O)CNC(=O)CNC(=O)CC[C@H](NC(=O)CCOCCOCCOCCOCCNC(=O)c2ccc(NN)nc2)C(=O)NCC(=O)NCC(=O)NCC(=O)NCCCC[C@@H]2NC(=O)[C@@H](Cc3ccccc3)NC(=O)[C@H](CC(=O)O)NC(=O)CNC(=O)[C@H](CCCNC(=N)N)NC2=O)NC(=O)[C@@H](Cc2ccccc2)NC(=O)[C@H](CC(=O)O)NC(=O)CNC1=O [technetium-99m labelled] has a tissue uptake of 10.7 ± 1 %ID/g (γ-counting; female athymic nude mice, U-87 MG xenograft, kidneys; intravenous, 1 h).
